Published values gathered from unrelated publications.
Parts stem from different laboratories: compare values within a part only.

Study 1 — technique: universal PBM; form: double-stranded DNA, one strand shown; medium: in vitro; tested at: not given; direction: higher = stronger binding; endpoint: E-score
Target: Sal-like protein 4, full length isoform B (SALL4, Homo sapiens, UniProt Q9UJQ4-2, residues 1-616)
Setting: 8-mer, flanks averaged, mean of replicates
CCCTGATC: -0.218
CACCAGGC: -0.269
ATATCAGC: 0.182
AATAGGTA: 0.321
CGAAATAA: 0.239
GGGATACA: -0.0454
ATACTACC: 0.149
TAGTCATA: 0.337
AGCTTGAC: -0.209
CACTCTCG: -0.0477
CCCAATAA: 0.127
CTGTCGCA: -0.116
AACCACCC: -0.252
GGGACAAA: -0.0394
ACCCCCCG: -0.237
TAATGCGA: 0.237
ATAGTTGC: 0.238
ACGGGATC: -0.0449
AGGACCCG: -0.4
GAAATTAA: 0.379
CCTGCGAG: -0.174
CCAATCGA: -0.0524
ATGACAAA: 0.23
CCGCCCAC: -0.226
AGTGTTTG: 0.00858

Study 2 — technique: RNA Bind-n-Seq; form: RNA; medium: in vitro; tested at: not given; setting: RNA with constant flanks, ends assumed; reference: input RNA pool; direction: higher = stronger binding; endpoint: bound/input enrichment
Target: RING finger protein unkempt homolog, zinc fingers 1-6, GST-SBP tag (UNK, Homo sapiens, UniProt Q9C0B0, residues 30-357)
Residues (chain): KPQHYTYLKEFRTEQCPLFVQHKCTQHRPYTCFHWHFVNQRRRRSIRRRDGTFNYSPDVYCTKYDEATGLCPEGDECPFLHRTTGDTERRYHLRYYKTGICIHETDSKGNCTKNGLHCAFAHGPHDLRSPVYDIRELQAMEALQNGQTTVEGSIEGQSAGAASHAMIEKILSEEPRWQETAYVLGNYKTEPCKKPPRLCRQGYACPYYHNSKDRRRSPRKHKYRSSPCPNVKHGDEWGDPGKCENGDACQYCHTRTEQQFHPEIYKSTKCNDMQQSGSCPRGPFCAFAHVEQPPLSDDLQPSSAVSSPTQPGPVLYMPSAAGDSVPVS
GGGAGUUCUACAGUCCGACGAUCGGCAUCUGGGCAGCGGACGAUGGAAGAACUCUGGGCUUCGGCUGGGACCUUUCGUUCAUGCCGCAGGAACCGGAGAUGGUUGCGUAGAGCAGCCCACGGUUUUGUGGAAAUCUGAAAACUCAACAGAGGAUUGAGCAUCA: 0.15 ratio
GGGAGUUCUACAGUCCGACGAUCCUCUUAAAAACUGUACCAAUUAUCCAAAAUCAAAUGGAUGCACUUCUUGAUUUUAAUGUUAACCGUAAUGAACUUACAAAUGGGGUAAUAAAUGCUGCCUUCAUGCUCCUCUUCAAAGAUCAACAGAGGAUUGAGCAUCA: 0.297 ratio
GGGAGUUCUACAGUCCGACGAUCUCUGUUAAUCUCAAAGUGUGGCCAACUCCCAUUUACUUAGAGGCUGAUUAUCUAGUUUUGCCGUUCCUCAGGCCUCUAAUUUAUUUUUUGCUUUCUGCUUUAUUGAUCUUUUGCAUGUCCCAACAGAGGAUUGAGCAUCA: 2.1 ratio
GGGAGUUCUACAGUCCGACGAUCACCUCCCAAGUCCUUUAUGAAUGGGAGCAAGGCUUUUCCCAGUCCUUCACGCAAGAGCAAGCCGCUGAUAUUGACGGGCAGUAUGCAAUGACUAGGGCUCAGAGGGUCCGAGCUGCCAUGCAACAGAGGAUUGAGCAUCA: 0.0795 ratio
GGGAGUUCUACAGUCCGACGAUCUUAUCAAGGAAACAGAAAGAAGAAUUAUGGCAAAGGCUGAAGAAUUUAUUGACAGAUGUGUUGUCCGAAAGCCCAGUGGAUGGGUGGCAGGUAGUGGAAGCCCAGGGUGAAGACAAUAUGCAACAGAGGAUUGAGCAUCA: 0.526 ratio
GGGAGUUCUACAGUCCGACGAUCCCUUCCUUUCUGGCCAGUUCACCAAAAGGCAAAGGCUAUAAUAGGAGGUUAGCGCUCCGCUGGCUUUGGAAGUAAGUCUUUAUUAGUUUUCUGAGGGAGAUCAGAGAUGCACAGCUGGACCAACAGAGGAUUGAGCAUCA: 0.409 ratio
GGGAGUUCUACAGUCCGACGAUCUCUCUUCCUAUGCCAGUACCAUACUGUCUUAAUUACUGUAGCCCUAGAGUAAGUUUUGAAUUCCGGAUGUGUUAGUUCUCUAGCUUUGUUCUACAUCAAGAUAAUUUUACCUGUUCUGGGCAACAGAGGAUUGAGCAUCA: 2.54 ratio
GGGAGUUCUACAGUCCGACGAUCUCCUCACCAUCAAACCCGAAUGGAAACUUUAAUGUCGUCAUUAAAGAAGAGCCUCCCGAUGAUUAUGAUUAUGAACUUGGUGAAUGCCCAGAAGGGAUAACAGUGAAACAAGAAGAGACACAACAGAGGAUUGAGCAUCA: 0.403 ratio
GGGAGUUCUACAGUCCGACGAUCCCCGUCUUGGCUUAUCCACUUUGACUCCUUUGAGCCGUUUGGAGGGGCGGUUUCUGGCCGUUGUGGCUUUUAUGCUUUCAAAGAAUUUCUUCAGUCCAGAGAAUUCCUCCUGGCAGCCCUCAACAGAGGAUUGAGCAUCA: 0.221 ratio
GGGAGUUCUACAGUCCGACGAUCACUUUUCCAGUAUUUUAGUGGACCCUGAAAUGUGUGUGAUGUGACAUUUGUCAUUUUCAUCCGCAAAAAAAGUUGUAUGAUCUGUGCCUUUUUUAUAUCUUGGCAGGUAGGAAUAUUAUACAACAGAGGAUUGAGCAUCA: 0.322 ratio
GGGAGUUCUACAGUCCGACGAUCGCCAUGACGCUGAAUGAGAGCAACAUCUCUGCUGUCACCGGACUUAUCCGAUGUCAGUUAACCGAGGGGCAGUUGCAAGAUGCAGACCAGCAGUUGGAGUUCUUCAGUGAAUUCCAGCAGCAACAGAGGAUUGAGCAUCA: 0.128 ratio

Study 3 — technique: RNA Bind-n-Seq; form: RNA; medium: in vitro; tested at: 200 nM; setting: whole 134-nt RNA, ends assumed; with: 150 mM KCl; reference: input library; direction: higher = stronger binding; endpoint: log2 enrichment
Target: Ras GTPase-activating protein-binding protein 1, full length (G3BP1, Homo sapiens, UniProt Q13283)
Sequence of UniProt Q13283 (whole entry, looked up): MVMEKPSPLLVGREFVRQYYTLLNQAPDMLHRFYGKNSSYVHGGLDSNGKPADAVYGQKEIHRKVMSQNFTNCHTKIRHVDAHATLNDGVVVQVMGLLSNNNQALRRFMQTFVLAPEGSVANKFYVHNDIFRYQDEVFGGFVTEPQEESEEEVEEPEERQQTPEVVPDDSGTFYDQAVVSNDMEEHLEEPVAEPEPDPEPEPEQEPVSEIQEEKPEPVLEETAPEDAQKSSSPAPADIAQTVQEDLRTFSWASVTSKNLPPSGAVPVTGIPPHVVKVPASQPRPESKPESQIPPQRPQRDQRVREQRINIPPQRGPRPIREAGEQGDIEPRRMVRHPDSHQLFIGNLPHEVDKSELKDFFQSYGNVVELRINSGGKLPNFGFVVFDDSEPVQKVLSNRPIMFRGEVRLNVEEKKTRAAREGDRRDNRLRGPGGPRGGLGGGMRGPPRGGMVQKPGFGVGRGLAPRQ
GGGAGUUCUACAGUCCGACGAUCGUCCUGUGCUACACAUCGUAUGUACCGAAUCGGAAAAAAAGGAAAAAGGAAAAAAAGGAAAGUAUUAUGUUACGCCGUUCGGAUCUGCACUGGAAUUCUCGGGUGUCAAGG: -0.858
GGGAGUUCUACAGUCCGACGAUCAAGUCCUGUGCUACACAUCGUAUGUACCGAAUCGGGUUUUGGUUUUGGGUUUUGGGGAAAGUAUUAUGUUACGCCGUUCGGAUCUGCACUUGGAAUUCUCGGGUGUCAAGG: -0.711
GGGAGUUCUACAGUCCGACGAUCCCACCAUGACCCCUGACGGUCUGGCUGUGACCCCAACGCCGGUGCCCGUGGUCGGGAGCCAGAUGACCAGACAAGCCCGGCGCCUCUACGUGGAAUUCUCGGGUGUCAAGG: 0.773
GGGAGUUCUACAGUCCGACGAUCAAGUCCUGUGCUACACAUCGUAUGUACCGAAUCGGGGUGGGGUUUGGGGUUUGGGGAAAGUAUUAUGUUACGCCGUUCGGAUCUGCACUUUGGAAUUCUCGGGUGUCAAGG: 1.02
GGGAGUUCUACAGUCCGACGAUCUCAAGUCCUGUGCUACACAUCGUAUGUACCGAAUCGGGGUGGGGAGGGGAGGGGAAAGUAUUAUGUUACGCCGUUCGGAUCUGCACUUCCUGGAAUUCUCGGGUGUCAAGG: 1.47
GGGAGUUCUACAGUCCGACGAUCCCUCAAGUCCUGUGCUACACAUCGUAUGUACCGAAUCGGUGGUUUUUGGUGGAAAGUAUUAUGUUACGCCGUUCGGAUCUGCACUUCCAGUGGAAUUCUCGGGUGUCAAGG: -0.129
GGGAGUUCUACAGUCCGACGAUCCAAGUCCUGUGCUACACAUCGUAUGUACCGAAUCGGAAAAAAAGGAAAGGAAAGGAAAGUAUUAUGUUACGCCGUUCGGAUCUGCACUUCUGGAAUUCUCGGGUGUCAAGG: -1.28
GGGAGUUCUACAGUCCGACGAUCUGUGCUACACAUCGUAUGUACCGAAUCGGGGCCCCCCCGGGCCCCCCCGGGGCCCCCCCGGGAAAGUAUUAUGUUACGCCGUUCGGAUCUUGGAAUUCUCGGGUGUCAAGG: -1.7
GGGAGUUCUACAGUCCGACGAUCCUCAAGUCCUGUGCUACACAUCGUAUGUACCGAAUCGGAAAGGAAAAAGGUGGAAAGUAUUAUGUUACGCCGUUCGGAUCUGCACUUCCAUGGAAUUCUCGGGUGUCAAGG: -0.528
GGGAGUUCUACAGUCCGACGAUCCUCAAGUCCUGUGCUACACAUCGUAUGUACCGAAUCGGAAAAAGGUUUGGUGGAAAGUAUUAUGUUACGCCGUUCGGAUCUGCACUUCCAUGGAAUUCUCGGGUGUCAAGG: -0.613

Study 4 — technique: RNA Bind-n-Seq; form: RNA; medium: in vitro; tested at: 365 nM; reference: no-protein control; direction: higher = stronger binding; endpoint: RBNS enrichment (R)
Target: RNA binding protein fox-1 homolog 2, RRM domain, GST-SBP tag (RBFOX2, Homo sapiens, UniProt O43251-10, residues 100-194)
Setting: natural RNA segment, single round, ends assumed
Residues (chain): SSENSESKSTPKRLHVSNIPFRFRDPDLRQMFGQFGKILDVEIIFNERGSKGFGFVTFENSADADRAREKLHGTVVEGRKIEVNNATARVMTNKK
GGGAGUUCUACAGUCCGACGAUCGUUCUUAUCAGGGUGUGUCCACACUCUGCUCACAGGUGGAUCCACGGCUUUCCAGUGCGGAGAGUCGAGAUGCUCCCUGCAGCCCAGGCCCCGGGCACCUCCUGCAACCAUGGAAUUCUCGGGUGCCAA: 0.205
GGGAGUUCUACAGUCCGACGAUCAAUCUAAAGCAAGAAUAUAAAAUAAUUUUAAGAAGCAUAUAAUUUCUUUUGAUAAAAAGUAACAAAAAUUUAAUGCAGAUCAAAGACCAAGGCUUGUAACCAAAACAAGCUGGAAUUCUCGGGUGCCAA: 0.795
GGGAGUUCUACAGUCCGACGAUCCCUGCUCUUUCUCUUUGGUGCCCCUUAUCUCACCCCUUCCUUGGAAUUUAAUAAGUCUCAGGCAUUUCCAAUUGUAGACUAAAACCACUCUUAGCAUCUCCUCUAGUAUUUGGAAUUCUCGGGUGCCAA: 1.22
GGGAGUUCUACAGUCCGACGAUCAUUUUGAAGCCAAGCUUCACUUCUAAAGUGCCUACAGAGACUUGUAAAUGAAAAUGCAGCUCUGCACGAGUUUGAAACCGUCAUACCUCCUUCUAUUAGGAAUGGCAUAUUGGAAUUCUCGGGUGCCAA: 0.357
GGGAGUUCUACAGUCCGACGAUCUGAUGAUAUUUUCCAUUAAUAAAAUGUAAUUUCAGAUUAUUCGUUUACAAGCUUUAUAAUUUUAUGAUUUUUUAAUCGUGUUUUGUCACAGACUUCCCUAGUGUUUGUACUGGAAUUCUCGGGUGCCAA: 0.814
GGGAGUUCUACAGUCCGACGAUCUGUUUUCUUAGGUGUGCACUUUUAUAGUCUGUUUUUGAAGAUUAACACAUUUGCAAGGUGAUUGACACCAUCUUUGCCUAAAUGCAGUGAGUGUACAGGAAGCUCGUUCUUGGAAUUCUCGGGUGCCAA: 0.268
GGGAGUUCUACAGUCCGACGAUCCUCUCCAAGAGGCCUCAGUCCCCAAGACUGCCACCAGUCUACACAUACAGCAGCCCCCUGGACAGAAUCAGCAUUUCAGCUCAGCUGGCCUGGGAUGGGCCAGGCUGGUCUGGAAUUCUCGGGUGCCAA: 0.315
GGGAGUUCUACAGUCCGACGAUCAAUGCCCACCCCUACUGUGGCCACAUCAUGCCCAGUGUCCCCCCAGGUAGGAGCAGAUACAGUGCAGACCAGGCCCCUCAGUCCUCAUGGUCAAGUCCUUUUGUUGCUCUUGGAAUUCUCGGGUGCCAA: 0.293
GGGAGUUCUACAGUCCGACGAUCGUCUGACCUUCCCACUGAGAAACACAUGUUCAUUUAUGUGAUCAUGUAUAGAUUUCAGAAUAUAAGAUAUGACUGUACAUAAUUGUAAUAAAUACGAGUUGCCAUAUUUAUGGAAUUCUCGGGUGCCAA: 0.748
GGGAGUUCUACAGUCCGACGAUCGUAAGCUUUUUUACUUUAUUAUCUCUAUAAUUUAUUAUCUCUAUCCAUAUUUGUGGAUCGGGUAGUGGGAAAAGAGAUUAUAAUACUUGUCUUUCUCUCCUCUCCCUCCAUGGAAUUCUCGGGUGCCAA: 0.329
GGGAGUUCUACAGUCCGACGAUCCCAGCUUGGAGCUUUAGUUUUUUUCUUUGUUUUUCUUGCUGCCCUCCUCCCUGCCCCCCUUUUCUUACAAGGAAAGAAAAGUUGGAUCGUCAGUGGCCAGCCUCCCCUCAUGGAAUUCUCGGGUGCCAA: 0.995
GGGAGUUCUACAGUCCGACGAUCAACCAAAGGCCAAACUGAGGCUGCCCUGAGUUGGAAGACCACUUUCUGAAAUGCCCAUGGACUCUGCCUCCCAACCAUUCGUCUCUCACUCCUAGCAGAGCUGUCUGUGCUGGAAUUCUCGGGUGCCAA: 0.34
